# Measurements gathered from unrelated publications.
# Several values in a cell are separate wells, animals, samples, runs or records.
# Cell line: HeLa
Compound,test,setting,IC50
C#CCCCC[C@H](C)C[C@@H](C)C(=O)N(C)[C@H](C(=O)N(C)[C@@H](Cc1ccccc1)C(=O)N1CCC[C@H]1C(=O)N1CCC[C@H]1C(C)=O)C(C)C,"cell growth or viability, SRB",,~3 µM and 3 µM
O=C(O)c1ccccc1-c1c2ccc(=O)cc-2oc2cc(O)ccc12,"cell growth or viability, resazurin",24 h,> 100 µM
CC(C)C[C@H](NC(=O)[C@H](CC(C)C)NC(=O)[C@H](Cc1c[nH]cn1)NC(=O)[C@H](CCC(=O)O)NC(=O)[C@H](CC(C)C)NC(=O)[C@H](Cc1c[nH]cn1)NC(=O)[C@H](CCC(=O)O)NC(=O)[C@H](CC(C)C)NC(=O)[C@H](CC(C)C)NC(=O)[C@H](Cc1c[nH]cn1)NC(=O)[C@H](CCC(=O)O)NC(=O)[C@@H](N)CC(C)C)C(=O)N[C@@H](CCC(=O)O)C(=O)N[C@@H](Cc1c[nH]cn1)C(N)=O,"cell growth or viability, MTT",pH 7.4,> 100 µM
NC(=O)c1cccc2c3c([nH]c12)CCC(N)C3 (stereo not shown),cell growth or viability,,0.147 µM
CC(C)C[C@H](NC(=O)[C@H](CCCCN)NC(=O)[C@H](CC(C)C)NC(=O)[C@H](CC(C)C)NC(=O)[C@H](CCCCN)NC(=O)[C@H](CCCCN)NC(=O)[C@H](CC(C)C)NC(=O)[C@H](CC(C)C)NC(=O)[C@H](CCCCN)NC(=O)[C@H](CC(C)C)NC(=O)[C@H](CC(C)C)NC(=O)[C@H](CCCCN)NC(=O)[C@H](CCCCN)NC(=O)[C@H](CC(C)C)NC(=O)[C@@H](N)CSSC[C@H](N)C(=O)N[C@@H](CC(C)C)C(=O)N[C@@H](CCC(=O)O)C(=O)N[C@@H](Cc1c[nH]cn1)C(=O)N[C@@H](CC(C)C)C(=O)N[C@@H](CC(C)C)C(=O)N[C@@H](CCC(=O)O)C(=O)N[C@@H](Cc1c[nH]cn1)C(=O)N[C@@H](CC(C)C)C(=O)N[C@@H](CCC(=O)O)C(=O)N[C@@H](Cc1c[nH]cn1)C(=O)N[C@@H](CC(C)C)C(=O)N[C@@H](CC(C)C)C(=O)N[C@@H](CCC(=O)O)C(=O)N[C@@H](Cc1c[nH]cn1)C(N)=O)C(N)=O,"cell growth or viability, MTT",pH 6,12.9 µM
COCCOCCOCCOCCOCCOCCOCCOCCC(=O)N1CCC[C@H]1C(=O)N[C@@H](CC(C)C)C(=O)N[C@@H](Cc1cncn1CCCCCCCCc1ccccc1)C(=O)N[C@@H](CO)C(=O)N[C@H](C(N)=O)[C@@H](C)CP(=O)(O)O,cell proliferation,synchronised by thymidine block,380 µM
Cc1nn(-c2ccccc2)c(O)c1C(c1ccc([N+](=O)[O-])cc1)c1c(C)nn(-c2ccccc2)c1O,"cell growth or viability, MTT",48 h,38.3 µM
O=C(Cc1ccc2ccccc2c1)N[C@H](Cc1ccc(O)cc1)C(=O)N[C@H](Cc1ccccc1)C(=O)N[C@H](Cc1ccccc1)C(=O)N[C@H](Cc1ccc(O)cc1)C(=O)O,"cell growth or viability, MTT",,> 500 µg/mL
Cc1nn(-c2ccccc2)c(O)c1C(c1ccc(N(C)C)cc1)c1c(C)nn(-c2ccccc2)c1O,"cell growth or viability, MTT",48 h,39.3 µM
COc1ccc([N+]#[C][Re]2(=[C]=O)(=[C]=O)(=[C]=O)[N]3C(C)=CC=c4ccc5c(c43)[N]2C(C)=CC=5)cc1.O=S(=O)([O-])C(F)(F)F,"cell growth or viability, MTT",48 h,5 µM
